# Assay results of several laboratories.
# Lines come from different studies, so protocols differ.
# Organism: Mycobacteroides abscessus
SMILES,test,system,conditions,scale,measurement,value
CN[C@@H]1[C@H](O)[C@H](NC)[C@H]2O[C@]3(O)[C@H](O[C@@H]2[C@H]1O)O[C@H](C)C[C@@]3(O)CNCCc1ccc(F)cc1,RNA sequencing,ATCC 19977,"1 µg/mL, 3 h, unit not given",baseline: untreated,whiB7 regulon DEGs,92
CO[C@H]1/C=C/O[C@@]2(C)Oc3c(C)c(O)c4c(c3C2=O)C2=NC3(CCN(CC(C)C)CC3)NC2=C(NC(=O)/C(C)=C\C=C\[C@H](C)[C@H](O)[C@@H](C)[C@@H](O)[C@@H](C)[C@H](OC(=O)c2nccs2)[C@@H]1C)C4=O,,ATCC 19977 wild type,90% growth inhibition,,MIC,0.017 µM
CN[C@@H]1[C@H](O)[C@H](NC)[C@H]2O[C@]3(O)[C@H](O[C@@H]2[C@H]1O)O[C@H](C)C[C@@]3(O)CNCCc1cccs1,"LC-MS/MS, refers to: intracellular compound",ATCC 19977,"100 µM, 30 min",baseline: compound over spectinomycin,intracellular accumulation ratio,8.3 fold
COC1C=COC2(C)Oc3c(C)c(O)c4c(c3C2=O)C2=NC3(CCN(CC(C)C)CC3)NC2=C(NC(=O)C(C)=CC=CC(C)C(O)C(C)C(O)C(C)C(OC(=O)c2cncnc2)C1C)C4=O (stereo not drawn),,ATCC 19977,CAMHB,,IC50,0.017 µM
CO[C@H]1/C=C/O[C@@]2(C)Oc3c(C)c(O)c4c(c3C2=O)C2=NC3(CCN(CC(C)C)CC3)NC2=C(NC(=O)/C(C)=C\C=C\[C@H](C)[C@H](O)[C@@H](C)[C@@H](O)[C@@H](C)[C@H](OC(=O)c2cccc(F)c2)[C@@H]1C)C4=O,,ATCC 19977 wild type,90% growth inhibition,,MIC,0.055 µM
CCCCCCCCCC1N=C(N)N=C(N)N1c1ccccc1C.Cl (racemic),OD600,,50 µM,baseline: untreated,growth reduction,40 fold
CO[C@H]1/C=C/O[C@@]2(C)Oc3c(C)c(O)c4c(c3C2=O)C2=NC3(CCN(CC(C)C)CC3)NC2=C(NC(=O)/C(C)=C\C=C\[C@H](C)[C@H](O)[C@@H](C)[C@@H](O)[C@@H](C)[C@H](OC(=O)c2cccnc2)[C@@H]1C)C4=O,,ATCC 19977,,baseline: wild type over arr deletion,MIC ratio,0.9
CN[C@@H]1[C@H](O)[C@H](NC)[C@H]2O[C@]3(O)[C@H](O[C@@H]2[C@H]1O)O[C@H](C)C[C@@]3(O)CNCCc1ccc(C)cc1,microbial growth,ATCC19977,5 days,,MIC,4 µg/mL
COC1C=COC2(C)Oc3c(C)c(O)c4c(c3C2=O)C2=NC3(CCN(CC(C)C)CC3)NC2=C(NC(=O)C(C)=CC=CC(C)C(O)C(C)C(O)C(C)C(OC(=O)Nc2cccnn2)C1C)C4=O (stereo not drawn),intracellular bacterial growth,"THP-1 derived macrophages, ATCC 19977",,,IC50,0.04 µM
